# Measured values of several laboratories.
# Each line is one published result; not all experiments were run side by side. Values joined by “and” are separate records of one study, mostly repeats; a detail may differ. ± gives the spread as reported.
# CSNK1A1/CRBN: Cereblon/Casein kinase I alpha (CSNK1A1/CRBN, Homo sapiens, UniProt P48729+Q96SW2)
# Sequence of UniProt P35030 (whole entry, looked up): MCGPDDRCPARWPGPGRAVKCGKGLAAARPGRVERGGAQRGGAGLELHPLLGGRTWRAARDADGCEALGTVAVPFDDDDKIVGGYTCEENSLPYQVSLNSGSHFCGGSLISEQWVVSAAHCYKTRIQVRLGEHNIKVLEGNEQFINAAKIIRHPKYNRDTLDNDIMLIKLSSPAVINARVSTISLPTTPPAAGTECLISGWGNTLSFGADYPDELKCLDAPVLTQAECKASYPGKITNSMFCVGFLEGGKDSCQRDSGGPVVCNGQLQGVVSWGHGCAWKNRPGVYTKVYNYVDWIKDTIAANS
# Sequence of UniProt P48729 (whole entry, looked up): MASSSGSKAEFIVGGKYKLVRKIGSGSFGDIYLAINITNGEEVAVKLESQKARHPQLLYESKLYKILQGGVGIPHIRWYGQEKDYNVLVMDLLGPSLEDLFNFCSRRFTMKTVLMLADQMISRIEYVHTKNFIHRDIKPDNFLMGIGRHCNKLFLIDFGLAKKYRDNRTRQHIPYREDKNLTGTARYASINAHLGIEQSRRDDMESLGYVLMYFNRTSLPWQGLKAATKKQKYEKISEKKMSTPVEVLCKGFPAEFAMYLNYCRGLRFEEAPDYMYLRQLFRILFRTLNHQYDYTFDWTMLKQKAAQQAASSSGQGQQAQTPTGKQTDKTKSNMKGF
# Sequence of UniProt Q96SW2 (whole entry, looked up): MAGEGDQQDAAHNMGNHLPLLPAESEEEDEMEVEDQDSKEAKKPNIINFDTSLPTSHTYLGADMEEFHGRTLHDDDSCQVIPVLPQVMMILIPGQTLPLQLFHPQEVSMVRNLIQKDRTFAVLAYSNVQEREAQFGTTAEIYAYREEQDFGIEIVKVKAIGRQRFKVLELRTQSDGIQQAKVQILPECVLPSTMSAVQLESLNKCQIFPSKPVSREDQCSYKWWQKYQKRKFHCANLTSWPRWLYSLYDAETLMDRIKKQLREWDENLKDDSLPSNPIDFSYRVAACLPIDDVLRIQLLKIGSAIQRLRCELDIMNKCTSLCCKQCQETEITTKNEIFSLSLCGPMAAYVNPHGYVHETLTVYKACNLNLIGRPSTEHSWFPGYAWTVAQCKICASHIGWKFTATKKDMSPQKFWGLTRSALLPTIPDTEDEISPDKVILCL
# Sequence of UniProt Q8NE63 (whole entry, looked up): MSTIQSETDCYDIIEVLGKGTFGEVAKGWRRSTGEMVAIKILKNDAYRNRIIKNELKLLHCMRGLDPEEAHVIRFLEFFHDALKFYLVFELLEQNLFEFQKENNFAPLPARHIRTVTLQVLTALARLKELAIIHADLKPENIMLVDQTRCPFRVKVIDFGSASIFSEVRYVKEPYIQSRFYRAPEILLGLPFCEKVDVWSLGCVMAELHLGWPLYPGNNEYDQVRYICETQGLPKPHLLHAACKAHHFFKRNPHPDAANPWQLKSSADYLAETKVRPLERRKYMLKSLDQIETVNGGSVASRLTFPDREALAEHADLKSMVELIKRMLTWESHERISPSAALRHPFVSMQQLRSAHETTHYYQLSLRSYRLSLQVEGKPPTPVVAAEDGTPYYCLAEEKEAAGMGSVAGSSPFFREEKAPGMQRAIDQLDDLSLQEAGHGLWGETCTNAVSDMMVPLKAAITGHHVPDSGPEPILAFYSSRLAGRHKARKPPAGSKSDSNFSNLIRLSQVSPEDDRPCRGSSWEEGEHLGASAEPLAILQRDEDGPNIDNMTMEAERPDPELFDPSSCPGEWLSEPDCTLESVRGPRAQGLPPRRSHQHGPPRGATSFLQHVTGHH
# Sequence of UniProt P0AC13 (whole entry, looked up): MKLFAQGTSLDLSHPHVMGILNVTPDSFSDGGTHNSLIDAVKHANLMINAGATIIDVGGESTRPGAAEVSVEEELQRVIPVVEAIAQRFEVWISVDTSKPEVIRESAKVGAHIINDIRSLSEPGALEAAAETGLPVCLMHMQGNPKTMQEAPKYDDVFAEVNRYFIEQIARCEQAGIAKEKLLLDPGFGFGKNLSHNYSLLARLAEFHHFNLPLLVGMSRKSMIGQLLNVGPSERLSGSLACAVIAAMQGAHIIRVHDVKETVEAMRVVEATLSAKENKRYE
# Sequence of UniProt Q13526 (whole entry, looked up): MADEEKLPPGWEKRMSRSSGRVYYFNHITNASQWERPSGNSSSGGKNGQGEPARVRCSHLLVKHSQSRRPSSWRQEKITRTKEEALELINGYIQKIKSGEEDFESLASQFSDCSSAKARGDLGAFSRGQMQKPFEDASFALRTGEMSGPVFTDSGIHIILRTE
# Sequence of UniProt Q86TI2 (whole entry, looked up): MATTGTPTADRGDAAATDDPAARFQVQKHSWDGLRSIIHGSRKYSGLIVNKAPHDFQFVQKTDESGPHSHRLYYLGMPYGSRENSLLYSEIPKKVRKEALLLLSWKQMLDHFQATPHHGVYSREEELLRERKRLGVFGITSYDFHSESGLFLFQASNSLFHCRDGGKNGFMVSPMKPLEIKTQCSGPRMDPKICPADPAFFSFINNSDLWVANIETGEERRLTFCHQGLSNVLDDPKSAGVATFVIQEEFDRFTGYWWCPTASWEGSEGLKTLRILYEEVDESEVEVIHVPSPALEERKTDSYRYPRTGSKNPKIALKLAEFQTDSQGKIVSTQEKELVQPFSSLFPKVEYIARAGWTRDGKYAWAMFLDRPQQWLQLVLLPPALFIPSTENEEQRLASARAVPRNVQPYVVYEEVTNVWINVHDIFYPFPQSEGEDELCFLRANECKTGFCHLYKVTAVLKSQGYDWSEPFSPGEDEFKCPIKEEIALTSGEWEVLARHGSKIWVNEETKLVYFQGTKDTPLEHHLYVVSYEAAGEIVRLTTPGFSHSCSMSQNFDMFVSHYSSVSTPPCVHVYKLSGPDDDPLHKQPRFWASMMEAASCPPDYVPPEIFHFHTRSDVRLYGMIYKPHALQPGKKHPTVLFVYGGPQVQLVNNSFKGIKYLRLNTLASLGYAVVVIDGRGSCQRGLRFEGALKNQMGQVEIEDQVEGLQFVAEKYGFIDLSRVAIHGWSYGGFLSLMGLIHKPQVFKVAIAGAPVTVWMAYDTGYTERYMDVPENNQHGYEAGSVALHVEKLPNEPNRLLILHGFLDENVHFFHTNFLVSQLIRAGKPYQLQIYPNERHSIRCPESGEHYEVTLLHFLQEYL
# Sequence of UniProt Q7Z2W7 (whole entry, looked up): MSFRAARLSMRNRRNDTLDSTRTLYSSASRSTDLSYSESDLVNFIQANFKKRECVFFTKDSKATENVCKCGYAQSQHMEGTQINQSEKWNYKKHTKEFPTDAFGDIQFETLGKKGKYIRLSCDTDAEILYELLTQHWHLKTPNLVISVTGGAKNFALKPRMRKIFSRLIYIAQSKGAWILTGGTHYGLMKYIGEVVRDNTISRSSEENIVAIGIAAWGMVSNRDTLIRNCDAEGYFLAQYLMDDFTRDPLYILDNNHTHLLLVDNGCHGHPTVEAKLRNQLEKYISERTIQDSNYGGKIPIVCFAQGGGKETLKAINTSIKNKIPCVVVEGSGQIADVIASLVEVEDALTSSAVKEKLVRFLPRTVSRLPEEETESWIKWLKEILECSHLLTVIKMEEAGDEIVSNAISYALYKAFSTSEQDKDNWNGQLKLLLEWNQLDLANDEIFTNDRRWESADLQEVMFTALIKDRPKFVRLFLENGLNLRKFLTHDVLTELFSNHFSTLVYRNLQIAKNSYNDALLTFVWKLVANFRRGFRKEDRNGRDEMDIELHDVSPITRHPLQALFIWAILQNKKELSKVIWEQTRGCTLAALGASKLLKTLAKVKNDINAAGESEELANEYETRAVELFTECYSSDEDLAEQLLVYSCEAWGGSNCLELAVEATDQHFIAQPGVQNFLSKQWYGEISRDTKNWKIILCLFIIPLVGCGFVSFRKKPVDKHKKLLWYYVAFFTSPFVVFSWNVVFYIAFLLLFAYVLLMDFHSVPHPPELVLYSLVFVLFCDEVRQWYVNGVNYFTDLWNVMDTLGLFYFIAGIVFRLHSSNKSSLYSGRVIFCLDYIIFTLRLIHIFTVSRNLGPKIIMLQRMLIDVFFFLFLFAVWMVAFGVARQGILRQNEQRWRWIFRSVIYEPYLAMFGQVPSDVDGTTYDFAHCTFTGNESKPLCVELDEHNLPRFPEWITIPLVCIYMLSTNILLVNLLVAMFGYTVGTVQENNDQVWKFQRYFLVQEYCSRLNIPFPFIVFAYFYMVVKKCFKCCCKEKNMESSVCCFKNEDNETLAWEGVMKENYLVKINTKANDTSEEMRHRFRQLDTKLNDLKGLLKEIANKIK
Structure (SMILES),tested on,test,system,setting,scale,quantity,value
O=c1ccn([C@@H]2O[C@H](COP(=O)(O)OP(=O)(O)O)[C@@H](O)[C@H]2O)c(=O)[nH]1,"O-GlcNAc transferase (Xanthomonas campestris pv. campestris, UniProt Q8PC69)","binding, surface plasmon resonance",,,,Kd,~100000 nM
C=CC(=O)Nc1cccc(Cn2ncc3cnc(Nc4cnn(CCOC)c4)nc32)c1,TLK1 human,"binding, KINOMEscan",,100 nM,lower = stronger binding,percent of control,100%
Cn1nc(CNc2nnn[nH]2)c(=O)c2c(=O)[nH]c(N)nc21,"Dihydropteroate synthase (folP, Bacteria, UniProt P0AC13)","binding, SPR",,,,Kd,3.23 nM
C=C(NC(=O)c1csc(-c2nc3c(cc2O)-c2nc(cs2)C(=O)NC(C(C)O)C(=O)NC(=C(C)OC)c2nc(cs2)C(=O)NC2c4nc(cs4)C(=O)NC(COC(=O)c4c5c6c(cccc6n4O)COC(=O)C(OC4CC(C)(O)C(N(C)C)C(C)O4)C2OC5)c2nc-3cs2)n1)C(N)=O (stereo not shown),,,"cynomolgus monkey, plasma","intravenous, 3 mg/kg, single dose, infusion",,half-life,5.25 h
C=CC(=O)N1CC2(CCN(c3nc(OC4CCN(CCCOC)CC4)nc4c(OCC(F)(F)F)c(-c5c(C)ccc6[nH]ncc56)c(C5CC5)cc34)CC2)C1,"GTPase KRas, GDP-bound (KRAS, Homo sapiens, UniProt P01116, Q61H)",SPR,,,,Kd,1150 ± 130 nM
COC1CN([C@H]2CC[C@H]([C@@]3(C)Oc4c(Cl)cc(C(=O)NCc5c(SC)cc(C)[nH]c5=O)c(C)c4O3)CC2)C1,,"RNA-seq, item: BMPR1A mouse homolog","mouse, HT-1376 xenograft, whole blood",dose not given,reference: vehicle,log2 fold change,0.302
CCc1c(C(=O)Nc2ccc3c(c2)CN(C2CCC(=O)NC2=O)C3=O)[nH]c2c(CN)cccc12 (stereo not shown),CSNK1A1/CRBN,"protein level, degrader, luciferase",,,,DC50,17.8 nM
CCC1(CC)C(=O)N(c2cc(O)cc(C(=O)N3CCN(Cc4ccc(Br)cc4)CC3)c2)C1=O,"Dipeptidyl peptidase 9 (DPP9, Homo sapiens, UniProt Q86TI2)","enzyme activity, inhibitor, fluorescence",,,,Ki,77.8 nM
Cc1ncsc1-c1ccc(C(C)NC(=O)C2CC(O)CN2C(=O)C(NC(=O)CCCCCCCCCCN2CCCC(Nc3ncc(Cl)c(Nc4ccccc4S(=O)(=O)C(C)C)n3)C2)C(C)(C)C)cc1 (stereo not shown),22Rv1,"RNA-seq, item: ZNF232 mRNA",,concentration not given,reference: DMSO,log2 fold change,-1.21
NC(=O)[C@H](Cc1c[nH]c2ccc(F)cc12)NC(=O)[C@@H]1CCCCN1C(=O)[C@@H]1Cc2c([nH]c3ccccc23)CN1C(=O)CCl,"Peptidyl-prolyl cis-trans isomerase NIMA-interacting 1 (PIN1, Homo sapiens, UniProt Q13526)","protein degradation, degrader",human cancer cell lines,24 h,,DC50,~500 nM
CCc1c(C(=O)Nc2ccc3c(c2)CN(C2CCC(=O)NC2=O)C3=O)[nH]c2c(NC(C)=O)cccc12 (stereo not shown),CSNK1A1/CRBN,"protein level, degrader, luciferase",,,,DC50,39.7 nM
O=C(NC1CCC2(CCCC2)CC1)c1ccc(-c2ccccc2)cc1,"Transient receptor potential cation channel subfamily M member 8 (TRPM8, Homo sapiens, UniProt Q7Z2W7)",19F NMR titration,LPPG micelles,37 °C,,Kd,36 ± 11 mol %
Cc1c[nH]c2nccc(-c3ccc(C(=O)N[C@@H]4c5c(F)cc(C(F)F)cc5C[C@@H]4O)cn3)c12,"cAMP-dependent protein kinase catalytic subunit beta (PRKACB, Homo sapiens, UniProt P22694)","binding, competition with immobilised ligand",,,,Kd,6.3 nM
Nc1ncc(-c2cc(-c3cnn(CC(F)(F)F)c3)ncc2F)nc1C(=O)NC1CNCC(F)C1 (stereo not shown),PRKD3,KINOMEscan,,1 µM,reference: DMSO control,remaining binding,89%
Cc1nc(-c2c[nH]c(C(=O)Nc3ncccc3O)c2)cs1,"Trypsin-3 (Homo sapiens, UniProt P35030)","enzyme activity, inhibitor, absorbance",,,,Ki,47000 nM and 46900 nM
Cc1nn(-c2cccc(N)c2)c(=O)c2cnc(Nc3ccc(N4CCNCC4)cc3)nc12,"Homeodomain-interacting protein kinase 4 (HIPK4, Homo sapiens, UniProt Q8NE63)","enzyme activity, inhibitor",,,,IC50,> 10000 nM
